Results gathered from unrelated publications.
Lines come from different studies, so protocols differ. ± marks the error that the study gave.

SMILES | target or system | assay | system | setting | how to read | measurement | value
CCC(=O)N1CCN(c2ccc(NC(=O)c3ccc([N+](=O)[O-])o3)cc2Cl)CC1 | Mus musculus | gene silencing, high-content imaging | LDR reporter GFP cells | retest run 1 |  | AC50 | 2000 nM
O=C(N/N=C/c1cc[n+](CC2CC2)c2ccccc12)c1cc(C(=O)N/N=C/c2cc[n+](CC3CC3)c3ccccc23)ncn1 | hp2 hairpin duplex DNA | FRET melting |  | 1 µM, added: ds26 10 µM |  | ΔTm | 0.5 ± 0.3 °C
C=CC(=O)Nc1cccc(Cn2ncc3cnc(Nc4cnn(CCOC)c4)nc32)c1 | CSNK1A1L human | binding, KINOMEscan |  | 100 nM | lower = stronger binding | percent of control | 100%
Nc1ncc(-c2cc(-c3cnn(CC(F)(F)F)c3)ncc2F)nc1C(=O)NC1CNCC(F)C1 (stereo not drawn) | CSNK1G2 | KINOMEscan |  | 1 µM | reference: DMSO control | remaining binding | 46%
CC[n+]1cccc2cc(/C=N/NC(=O)c3cncc(C(=O)N/N=C/c4ccc5c(ccc[n+]5CC)c4)n3)ccc21 | hp2 hairpin duplex DNA | FRET melting |  | 1 µM, added: ds26 10 µM |  | ΔTm | 1.6 ± 0.1 °C
COC1OC(C)C(OS(=O)(=O)O)C(OC2OC(C)C(OS(=O)(=O)O)C(OC3OC(C)C(OS(=O)(=O)O)C(OC4OC(C)C(OS(=O)(=O)O)C(OC5OC(C)C(OS(=O)(=O)O)C(OC6OC(C)C(OS(=O)(=O)O)C(OC7OC(C)C(OS(=O)(=O)O)C(OC8OC(C)C(OS(=O)(=O)O)C(OC9OC(C)C(OS(=O)(=O)O)C(OC%10OC(C)C(OS(=O)(=O)O)C(OC%11OC(C)C(OS(=O)(=O)O)C(OC%12OC(C)C(OS(=O)(=O)O)C(OS(=O)(=O)O)C%12O)C%11O)C%10O)C9O)C8O)C7O)C6O)C5O)C4O)C3O)C2O)C1O (stereo not drawn) |  |  | human plasma | 128 µg/mL | reference: control | prothrombin time prolongation | 0.97 fold
CNS(=O)(=O)Nc1nccc(Cc2c(C)c3ccc(Oc4ncccc4F)cc3oc2=O)c1F | SW1417 | cell viability |  | 7 days |  | IC50 | 4.65 nM
O=C(N/N=C/c1cc[n+](Cc2ccccc2)c2ccccc12)c1cc(C(=O)N/N=C/c2cc[n+](Cc3ccccc3)c3ccccc23)ncn1 | hp2 hairpin duplex DNA | FRET melting |  | 1 µM |  | ΔTm | 1.4 ± 0.5 °C
COCC/N=C(\S)N/N=C(\C)c1ccccc1O | Mus musculus | gene silencing, high-content imaging | LDR reporter GFP cells | retest run 2 |  | AC50 | 12600 nM
Cc1ncsc1-c1ccc(C(C)NC(=O)C2CC(O)CN2C(=O)C(NC(=O)CCCCCCCCCCN2CCCC(Nc3ncc(Cl)c(Nc4ccccc4S(=O)(=O)C(C)C)n3)C2)C(C)(C)C)cc1 (stereo not drawn) | 22Rv1 | RNA-seq, refers to: PHLDB1 mRNA |  | concentration not given | reference: DMSO | log2 fold change | -1.4
C=CC(=O)N1[C@@H](c2ccc3c(c2)OCO3)c2[nH]c3ccccc3c2C[C@H]1C(=O)N1CCN(C)CC1 | human cyclin E1 wild type-3xFLAG:CDK2 | co-IP with TMT proteomics, refers to: RPS14 |  | concentration not given, P62263 | reference: wild type DMSO | relative co-enrichment | 83%
C[n+]1cc(/C=N/NC(=O)c2cccc(C(=O)N/N=C/c3cc4ccccc4[n+](C)c3)c2)cc2ccccc21 | hp2 hairpin duplex DNA | FRET melting |  | 1 µM |  | ΔTm | 0.6 ± 0.1 °C
COC1CN([C@H]2CC[C@H]([C@@]3(C)Oc4c(Cl)cc(C(=O)NCc5c(SC)cc(C)[nH]c5=O)c(C)c4O3)CC2)C1 |  | RNA-seq, refers to: SLC18A2 mouse homolog | mouse, HT-1376 xenograft, whole blood | dose not given | reference: vehicle | log2 fold change | 0.562
CC[n+]1cccc2cc(/C=N/NC(=O)C(=O)N/N=C/c3ccc4c(ccc[n+]4CC)c3)ccc21 | hp2 hairpin duplex DNA | FRET melting |  | 1 µM, added: ds26 10 µM |  | ΔTm | 1 ± 0.3 °C
Cc1ccc(C(C)C)c(OCc2ccc(C(=O)N/N=C/c3cccc(O)c3O)cc2)c1 | Mus musculus | gene silencing, high-content imaging | LDR reporter GFP cells | retest run 1 |  | AC50 | 2510 nM

A few entries again:
SMILES | target or system | assay | system | setting | how to read | measurement | value
Cc1ccc(C(C)C)c(OCc2ccc(C(=O)N/N=C/c3cccc(O)c3O)cc2)c1 | Mus musculus | gene silencing, high-content imaging | LDR reporter GFP cells | retest run 1 |  | AC50 | 2510 nM
C=CC(=O)N1[C@@H](c2ccc3c(c2)OCO3)c2[nH]c3ccccc3c2C[C@H]1C(=O)N1CCN(C)CC1 | human cyclin E1 wild type-3xFLAG:CDK2 | co-IP with TMT proteomics, refers to: RPS14 |  | concentration not given, P62263 | reference: wild type DMSO | relative co-enrichment | 83%
